Experimental data from different studies.
Each numbered part is a random draw from the data of one study; scales do not carry over between parts.
Chain of UniProt P16220 (whole entry, looked up): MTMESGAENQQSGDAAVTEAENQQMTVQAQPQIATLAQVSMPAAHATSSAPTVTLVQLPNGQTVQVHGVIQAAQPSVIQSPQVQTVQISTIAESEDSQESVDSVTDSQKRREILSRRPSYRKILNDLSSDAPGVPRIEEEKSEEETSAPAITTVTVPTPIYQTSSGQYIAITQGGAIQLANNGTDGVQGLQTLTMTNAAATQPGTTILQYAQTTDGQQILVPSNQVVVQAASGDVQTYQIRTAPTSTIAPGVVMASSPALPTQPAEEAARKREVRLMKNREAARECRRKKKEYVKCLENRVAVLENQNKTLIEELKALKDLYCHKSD

Sample 1 — method: competition protein-binding microarray; form: double-stranded DNA, one strand shown; sample: in vitro; concentration: 2 µM; added: Pho4 competitor, 0.05 µM; reading: higher = stronger binding; quantity: fluorescence intensity; shared flanks, not repeated: … GTCTTGATTCGCTTGACGCTGCTG
Target: Centromere-binding protein 1, full length, His-tagged (CBF1, Saccharomyces cerevisiae, UniProt P17106, residues 1-351)
Chain of UniProt P17106 (whole entry, looked up): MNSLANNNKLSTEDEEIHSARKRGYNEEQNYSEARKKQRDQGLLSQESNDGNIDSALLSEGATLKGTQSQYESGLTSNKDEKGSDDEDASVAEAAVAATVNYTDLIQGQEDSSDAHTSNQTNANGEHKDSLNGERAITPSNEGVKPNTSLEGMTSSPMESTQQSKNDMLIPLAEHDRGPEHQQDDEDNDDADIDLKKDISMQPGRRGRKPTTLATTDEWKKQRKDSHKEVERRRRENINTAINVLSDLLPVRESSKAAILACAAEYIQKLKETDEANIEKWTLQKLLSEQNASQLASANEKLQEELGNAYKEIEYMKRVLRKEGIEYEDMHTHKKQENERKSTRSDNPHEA
Setting: whole 60-bp probe, lowest competitor level
CGTCCTAGTGATTGTGTTGTGGGTGCCATGAGGAAG: 87.8 a.u.
ACTATTAATATATTTTCATATAATTAGTATAATCTC: 92.5 a.u.
CTAACGAAGGTTTGGCCTGTGGGTGACAAGCCAAGT: 64.3 a.u.
AAAGCGGTAATTTGCGAAGTGGGTGCAGATATCTAT: 77.8 a.u.
CATACCCAACCTTGGGCAGTGGGTGAAGATATTTGT: 61.1 a.u.
GAATTACTCATTTGTTTCGTGCGATTTCCTATTGCG: 92 a.u.
ATATATATATGCGGCTGCGTGCGGATATTCTCCCGG: 124 a.u.
GAGGTCGCTGCTCAACACGTACATGCAGAAGTAGTG: 63.5 a.u.

Sample 2 — mode: inhibitor; concentration: 20 µM; quantity: inhibition
Target: Replicase polyprotein 1ab, nsp13 helicase (rep, Severe acute respiratory syndrome coronavirus 2, UniProt P0DTD1)
N=C1CCCN1Cc1[nH]c(=O)[nH]c(=O)c1Cl: 10.1%
CC(C)(C)c1cc(C(C)(C)C)c(NC(=O)c2c[nH]c3ccccc3c2=O)cc1O: 6.2%
NC(N)=NCCC[C@H](N)C(=O)NCC(=O)N[C@@H](CC(=O)O)C(=O)N[C@@H](CO)C(=O)O: 9.9%
OCCn1cc(-c2ccc3c(c2)CC/C3=N\O)c(-c2ccncc2)n1: 4.17%
O=C(O)CCNc1cc(N2CCc3ccccc3CC2)nc(-c2cccnc2)n1: 2.04%
Cc1cc(I)ccc1Nc1c(C(=O)NOCC2CC2)cc(F)c(F)c1F: 2.95%
CCN(CC)Cc1cc(Nc2ccnc3cc(Cl)ccc23)ccc1O: 9.85%
c1ccc(-c2ncc(CN3CCN(c4ncccn4)CC3)[nH]2)cc1: 8.82%
CC[C@H](C)[C@H](NC(=O)[C@H](Cc1ccc(O)cc1)NC(=O)[C@@H](NC(=O)[C@H](CCCNC(=N)N)NC(=O)[C@@H](N)CC(=O)O)C(C)C)C(=O)N[C@@H](Cc1c[nH]cn1)C(=O)N1CCC[C@H]1C(=O)O: 1.68%
CCOC1O[C@H]([C@@H](COCc2ccccc2)OCc2ccccc2)[C@H](OCc2ccccc2)[C@H]1O (stereo partly shown): 3.79%
COc1ccc(C[C@@H](C)[C@@H](C)Cc2ccc(OC)c(OC)c2)cc1OC: 3.99%
OCc1ccc(O[C@@H]2O[C@H](CO)[C@@H](O)[C@H](O)[C@H]2O)cc1: -0.51%
CN1C(C(=O)Nc2ccccn2)=C(O)c2sccc2S1(=O)=O: 4.98%
c1ccc2c(c1)sc1ccccc12: 2.98%
CN1CCN(c2c(F)cc3c(=O)c(C(=O)O)cn4c3c2OCN4C)CC1: 0.33%
COc1cc(/C=C/C(=O)CC(=O)/C=C/c2ccc(O)c(OC)c2)ccc1O: 0.71%
CC[C@H](CC#N)OC(=O)N[C@@H](C)c1cccc(NC(=O)Nc2ccc(-c3cnco3)c(OC)c2)c1: 3.78%
OCCCCO: 5.13%
CCCCCCCCN=c1ccn(CCCCCCCCCCn2ccc(=NCCCCCCCC)cc2)cc1: 90%
CCN(CCCOc1ccc2c(Nc3cc(CC(=O)Nc4cccc(F)c4)[nH]n3)ncnc2c1)CCOP(=O)(O)O: 0.27%
Oc1noc2c1CCNC2: -1.45%
Cn1cnc2c(F)c(Nc3ccc(Br)cc3F)c(C(=O)NOCCO)cc21: 2.9%
C=C1/C(=C\C=C2/CCC[C@]3(C)[C@@H]([C@H](C)CCCC(O)(C(F)(F)F)C(F)(F)F)CC[C@@H]23)C[C@@H](O)C[C@@H]1O: 5.79%
N#Cc1cc(CN2CCC(Nc3ncnc4sc(Cl)cc34)CC2)ccc1F: 8.67%
O=C1c2ccccc2C(=O)C1c1ccccc1: 11.3%

Sample 3 — cell line: HEK-293T; effect on: pseudovirus infection; method: FDA-approved drug library screen; organism: VSV pseudotyped with SARS-CoV-2 spike; concentration: 10 µM; time: 16 h; reference: vehicle-treated; quantity: GFP-positive cells
COc1ccc(OC)c(C(O)C(C)N)c1 (stereo not shown): 105%
OCCN1CCN(CCCN2c3ccccc3Sc3ccc(Cl)cc32)CC1: 17.9%
CC(=O)CCCCn1c(=O)c2c(ncn2C)n(C)c1=O: 97.1%
Nc1[nH]c(=O)ncc1F: 92.5%
CCCNC(C)C(=O)Nc1c(C)csc1C(=O)OC (stereo not shown): 93.2%

Sample 4 — method: protein binding microarray; form: double-stranded DNA, one strand shown; sample: in vitro; concentration: not given; reference: not given; reading: higher = stronger binding; quantity: E-score
Target: Histone acetyltransferase KAT6A, both winged helices, GST fusion (KAT6A, Homo sapiens, UniProt Q92794, residues 1-181)
Setting: 8-mer, flanks averaged, mean of 2 arrays, mostly near background
Residues (chain): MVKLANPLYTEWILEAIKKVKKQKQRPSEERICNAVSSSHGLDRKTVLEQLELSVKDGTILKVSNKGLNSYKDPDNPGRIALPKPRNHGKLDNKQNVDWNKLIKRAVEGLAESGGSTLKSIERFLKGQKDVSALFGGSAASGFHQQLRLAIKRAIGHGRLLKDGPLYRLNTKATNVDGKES
GCGCTAAC: 0.268
GCCACCGA: -0.0687
CTTCAAAC: -0.108
ATGAGGGC: -0.122
CACGACAA: -0.069
CAACAAAA: -0.115
CACTATCC: -0.0134
ACGTGTGA: -0.0129

Sample 5 — effect on: enzyme activity; mode: inhibitor; concentration: 20 µM; setting: hit confirmation; quantity: inhibition
Target: Replicase polyprotein 1ab, main protease (rep, Severe acute respiratory syndrome coronavirus 2, UniProt P0DTD1)
CNc1nc(Nc2cn(C(C)(C)C#N)nc2C)ncc1C(F)(F)F: 70.9%
Oc1cc2c(cc1C(c1ccc(C(F)(F)F)cc1)N1CCOCC1)OCO2 (stereo not shown): 110%
CCOC(=O)Nc1ccc(NCc2ccc(F)cc2)nc1N: 43.2%
COc1ccc(OC)c2c(=S)c3ccccc3[nH]c12: 95.2%
O=c1cccc2cc(O)c(O)c(O)c2c1O: 111%

Further values, each from its own experiment — method: protein-binding microarray; form: double-stranded DNA, one strand shown; sample: in vitro; concentration: not given; reading: higher = stronger binding
Setting: k-mer, scored over probes, only values ≥0.25
ETS1 Y397A: Protein C-ets-1 (ETS1, Homo sapiens, UniProt P14921, residues 1-441, Y397A, full length assumed)
Chain of UniProt P14921 (whole entry, unmodified, looked up): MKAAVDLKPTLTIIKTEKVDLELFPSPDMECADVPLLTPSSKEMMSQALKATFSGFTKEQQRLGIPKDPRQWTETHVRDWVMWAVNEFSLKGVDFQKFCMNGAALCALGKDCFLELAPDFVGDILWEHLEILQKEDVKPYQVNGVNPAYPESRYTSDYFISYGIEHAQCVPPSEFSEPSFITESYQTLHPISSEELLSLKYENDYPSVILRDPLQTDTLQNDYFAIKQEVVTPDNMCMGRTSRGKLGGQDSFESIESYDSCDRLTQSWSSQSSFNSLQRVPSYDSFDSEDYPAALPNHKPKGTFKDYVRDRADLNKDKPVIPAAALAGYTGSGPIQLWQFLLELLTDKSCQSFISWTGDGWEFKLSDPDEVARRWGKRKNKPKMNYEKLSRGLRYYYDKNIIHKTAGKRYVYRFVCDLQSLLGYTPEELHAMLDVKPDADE
ACGTGTC  E-score (Cyclic AMP-responsive element-binding protein 1 (CREB1, Homo sapiens, UniProt P16220, residues 1-327, full length assumed)): 0.272
GCCCCAAC  E-score (ETS1 Y397A): 0.286
ATTCGTCA  E-score (ETS1 Y397A): 0.268
CGTCCGGA  E-score (ETS1 Y397A): 0.268

A few entries again (sample 2):
Oc1noc2c1CCNC2: -1.45%
Cn1cnc2c(F)c(Nc3ccc(Br)cc3F)c(C(=O)NOCCO)cc21: 2.9%
C=C1/C(=C\C=C2/CCC[C@]3(C)[C@@H]([C@H](C)CCCC(O)(C(F)(F)F)C(F)(F)F)CC[C@@H]23)C[C@@H](O)C[C@@H]1O: 5.79%
